Results pooled from the literature.
Lines come from different studies, so protocols differ. Numbers after ± are the reported error.

Compound | cell line | assay | test system | conditions | how to read | quantity | value
COc1cc2c(N3CCN(C(=O)Nc4ccc(OC(C)C)cc4)CC3)ncnc2cc1OCCCN1CCCCC1 | African green monkey cells |  |  | 5 days |  | CC50 | 11.5 µM
CN(CCC(Oc1ccc(C(F)(F)F)cc1)c1ccccc1)N=O (stereo not drawn) | TK6 expressing CYP2C19 |  |  | 0.015 µM, 4 h, without S9 | baseline: vehicle | relative survival | 90.4%
Oc1ccc(C2(c3ccc(O)cc3)c3ccccc3-c3ccccc32)cc1 | HepG2 spheroids, dissociated | annexin V-FITC/PI flow cytometry |  | 1 µM, 24 h |  | early apoptotic cells | 13.6 ± 7.39%
CC[C@H](C)[C@H](NC(=O)[C@H](Cc1c[nH]cn1)NC(=O)[C@@H](NC(=O)[C@@H](NC(=O)[C@H](CC(C)C)NC(=O)[C@H](CCCCN)NC(=O)[C@H](CCCCN)NC(=O)[C@@H]1CCCN1C(=O)[C@H](CC(C)C)NC(=O)[C@H](CC(C)C)NC(=O)[C@H](CCC(N)=O)NC(=O)[C@@H](NC(=O)CNC(=O)[C@H](CC(C)C)NC(=O)[C@H](CCC(N)=O)NC(=O)[C@H](CC(C)C)NC(=O)[C@H](CCCNC(=N)N)NC(=O)[C@H](CC(N)=O)NC(=O)[C@H](CCCCN)NC(=O)[C@H](CC(N)=O)NC(=O)[C@H](CCCNC(=N)N)NC(=O)[C@@H](NC(=O)[C@H](CO)NC(=O)[C@H](Cc1ccccc1)NC(=O)[C@H](CC(C)C)NC(=O)[C@H](Cc1ccccc1)NC(=O)[C@H](C)NC(=O)[C@H](CC(N)=O)NC(=O)[C@H](CC(N)=O)NC(=O)[C@@H](NC(=O)[C@H](CCCNC(=N)N)NC(=O)[C@@H](N)Cc1c[nH]cn1)C(C)C)[C@@H](C)CC)C(C)C)C(C)C)C(C)C)C(=O)N[C@@H](CCCNC(=N)N)C(=O)NCC(=O)N[C@@H](CCCCN)C(=O)N[C@@H](CCC(N)=O)C(=O)N1CCC[C@H]1C(=O)N[C@@H](C)C(=O)N[C@H](C(=O)N[C@@H](Cc1ccccc1)C(=O)O)C(C)C | human red blood cells | hemolysis |  |  |  | HC50 | 363 µmol/L
CC(=O)N[C@@H](CCCCN)C(=O)N[C@@H](CCCCN)C(=O)N[C@@H](CC(C)C)C(=O)N[C@@H](CC(C)C)C(=O)N[C@@H](CCCCN)C(=O)N[C@@H](CC(C)C)C(=O)N[C@@H](CC(C)C)C(=O)N[C@@H](CCCCN)C(=O)N[C@@H](CCCCN)C(=O)N1CCC[C@H]1C(=O)N[C@@H](CC(C)C)C(=O)N[C@@H](C)C(=O)N[C@@H](CC(C)C)C(=O)N[C@@H](CC(C)C)C(=O)N[C@@H](CCCCN)C(N)=O | human red blood cells | haemolysis |  | 6 h, 37 °C, 5% haematocrit in PBS |  | MHC10 | > 160 µM
O=c1ccc2ccccc2o1 | NHEK |  | keratinocyte growth medium | concentration not given, 24 h, oxidative stress panel |  | DNA structure change, chance of response | 64.9%
Nc1ncnc2c1ncn2[C@@H]1O[C@@H]2COP(=O)(O)O[C@H]3[C@@H](O)[C@H](n4cnc5c(N)ncnc54)O[C@@H]3COP(=O)(O)O[C@H]2[C@H]1O | HFF-1 |  |  | 0.1 µg/mL |  | viability | 88.1%
CC(C)C[C@H](NC(=O)[C@H](CCCCN)NC(=O)[C@H](CC(C)C)NC(=O)[C@H](CC(C)C)NC(=O)CNC(=O)[C@H](CCCCN)NC(=O)[C@H](CC(C)C)NC(=O)[C@H](CCCCN)NC(=O)CNC(=O)[C@H](CC(C)C)NC(=O)[C@H](CC(C)C)NC(=O)[C@H](CCCCN)NC(=O)[C@@H](N)CC(C)C)C(=O)O | human red blood cells |  |  | 1 h, 37 °C, 10% hemolysis |  | lowest hemolytic concentration | > 256 µg/mL
CN(C(=O)n1cnc(-c2ccc[n+]([O-])c2)c1)C1CCCCC1 | COS-7 expressing human FAAH |  | culture supernatant | 100 nM, 1 h |  | concentration | 100.5 ± 1 nM
CC(C)C[C@H](NC(=O)CNC(=O)CNC(=O)CNC(=O)[C@H](CC(N)=O)NC(=O)[C@@H](NC(=O)[C@@H]1CCCN1C(=O)[C@H](C)NC(=O)[C@@H]1CCCN1C(=O)[C@H](C)NC(=O)[C@H](Cc1ccc(O)cc1)NC(=O)[C@@H]1CCCN1C(=O)[C@H](C)NC(=O)[C@H](CC(C)C)NC(=O)[C@H](CO)NC(=O)[C@@H](N)Cc1ccccc1)C(C)C)C(=O)N[C@@H](CCCCN)C(=O)N[C@@H](CCCCN)C(=O)N[C@@H](CC(C)C)C(=O)N[C@@H](CC(C)C)C(=O)N[C@@H](CC(C)C)C(=O)N[C@@H](CC(C)C)C(=O)N[C@@H](CC(C)C)C(=O)N[C@@H](CCCCN)C(=O)N[C@@H](CCCCN)C(=O)N[C@@H](CC(C)C)C(=O)NCC(=O)O | human red blood cells |  |  | 1 h, 37 °C, 10% hemolysis |  | lowest hemolytic concentration | > 256 µg/mL
Oc1ccc(C(c2ccc(O)cc2)(C(F)(F)F)C(F)(F)F)cc1 | HepG2 spheroids, dissociated | annexin V-FITC/PI flow cytometry |  | 10 µM, 96 h |  | early apoptotic cells | 5.45 ± 2.29%
CCn1cc(-c2ccnc3[nH]c(-c4cccc(CN(C)C)c4)cc23)c(-c2ccc(NC(=O)N(C)C)cc2)n1 | African green monkey cells |  |  | 5 days |  | CC50 | 9.33 µM
CCOP(=S)(OCC)Oc1cc(C)nc(C(C)C)n1 | rat hepatoma cells | cell viability |  | 24 h, freely dissolved concentration |  | IC10 | 6.31 µM
O=C(CCCN1CCC2(CC1)C(=O)NCN2c1ccccc1)c1ccc(F)cc1 | African green monkey cells |  |  | 5 days |  | CC50 | 81.3 µM
CC(=O)N[C@@H](CC(C)C)C(=O)N[C@@H](CCCCN)C(=O)N[C@@H](CC(C)C)C(=O)N[C@@H](CC(C)C)C(=O)N[C@@H](CCCCN)C(=O)N[C@@H](CCCCN)C(=O)N1CCC[C@H]1C(=O)N[C@@H](CC(C)C)C(=O)N[C@@H](CCCCN)C(=O)N[C@@H](CC(C)C)C(=O)N[C@@H](CC(C)C)C(=O)N[C@@H](CCCCN)C(N)=O | human red blood cells | haemolysis |  | 6 h, 37 °C, 5% haematocrit in PBS |  | MHC10 | > 160 µM
CC(C)C[C@H](NC(=O)CN)C(=O)N[C@@H](CCCCN)C(=O)N[C@@H](CCCCN)C(=O)N[C@@H](CC(C)C)C(=O)N[C@@H](CC(C)C)C(=O)N[C@@H](CC(C)C)C(=O)N[C@@H](CC(C)C)C(=O)N[C@@H](CC(C)C)C(=O)N[C@@H](CCCCN)C(=O)N[C@@H](CCCCN)C(=O)N[C@@H](CC(C)C)C(=O)NCC(=O)O | human red blood cells |  |  | 1 h, 37 °C, 10% hemolysis |  | lowest hemolytic concentration | > 256 µg/mL
CN1CCC(=C2c3ccccc3Oc3ccc(Cl)cc32)CC1 | African green monkey cells |  |  | 5 days |  | CC50 | 15 µM
CN(CCC=C1c2ccccc2CCc2ccccc21)N=O | TK6 expressing CYP2C19 |  |  | 0.125 µM, 4 h, without S9 | baseline: vehicle | relative survival | 71.8%
CNC(=O)c1cc(-c2ccoc2)ccc1OCCc1cccc(F)c1 | HepG2 |  |  | 3 (unit not given) | baseline: CC50 glucose over CC50 galactose | selectivity ratio | < 1
OC[C@@H]1[C@@H](O)[C@H](O)[C@@H](O)CN1CCCCCCNc1cc(-c2cccnn2)cc(C2CC2)c1 | A549 expressing ACE2 | WST-1 |  | 25 µM, 3 days |  | viability | 100%

Compound | cell line | assay | test system | conditions | how to read | quantity | value
Cc1cc(C(C)(C)c2ccc(O)c(C)c2)ccc1O | HepG2 spheroids, dissociated | annexin V-FITC/PI flow cytometry |  | 10 µM, 96 h |  | late apoptotic cells | 31.5 ± 3.37%
Cc1nc(-c2ccc(OCCc3cccc(F)c3)c(C(N)=O)c2)cs1 | HepG2 |  |  | 3 (unit not given) | baseline: CC50 glucose over CC50 galactose | selectivity ratio | 1
CCCCCCCC(=O)N[C@@H](CCCCN)C(=O)N[C@@H](CCCCN)C(=O)N[C@@H](C)C(=O)N[C@@H](C)C(=O)N[C@@H](CCCCN)C(=O)N[C@@H](C)C(=O)N[C@@H](C)C(=O)N[C@@H](CCCCN)C(=O)N[C@@H](CCCCN)C(=O)N1CCC[C@H]1C(=O)N[C@@H](C)C(=O)N[C@@H](CCCCN)C(=O)N[C@@H](C)C(=O)N[C@@H](C)C(=O)N[C@@H](CCCCN)C(N)=O | human red blood cells | haemolysis |  | 6 h, 37 °C, 5% haematocrit in PBS |  | MHC10 | > 160 µM
COc1cc2c(c(OC)c1OC)-c1ccc(OC)c(=O)cc1[C@@H](NC(C)=O)CC2 | human peripheral blood lymphocytes |  |  | 0.05 µg/mL, 24 h, without S9 |  | cytostasis | 100%
O=S(=O)(c1ccc(O)cc1)c1ccc(O)cc1 | HepG2 spheroids, dissociated | annexin V-FITC/PI flow cytometry |  | 1 µM, 96 h |  | early apoptotic cells | 5.94 ± 1.02%
CNC(=O)c1cc(C)ccc1OCCc1ccc(C2CC2)cc1 | HepG2 |  |  | 3 (unit not given) | baseline: CC50 glucose over CC50 galactose | selectivity ratio | 1
CN1CCC(=C2c3ccccc3Sc3ccccc32)CC1 | African green monkey cells |  |  | 5 days |  | CC50 | 25.7 µM
c1ccc2c(c1)ccc1c3ccccc3ccc21 | MCF7 AREc32 |  |  | highest tested |  | cytotoxicity | not toxic
Nc1nc2c(ncn2[C@@H]2O[C@@H]3COP(=O)(O)O[C@H]4[C@@H](O)[C@H](n5cnc6c(N)ncnc65)O[C@@H]4COP(=O)(O)O[C@H]3[C@H]2O)c(=O)[nH]1 | HFF-1 |  |  | 100 µg/mL |  | viability | 85.1%
Cc1c(-c2ccc(O)cc2)n(Cc2ccc(OCCN3CCCCC3)cc2)c2ccc(O)cc12 | African green monkey cells |  |  | 5 days |  | CC50 | 4.62 µM
CC(C)C[C@H](NC(=O)[C@H](CCCNC(=N)N)NC(=O)[C@H](CCCNC(=N)N)NC(=O)[C@H](CCCNC(=N)N)NC(=O)[C@@H]1CCCN1C(=O)[C@H](Cc1ccccc1)NC(=O)[C@H](Cc1ccc(O)cc1)NC(=O)[C@H](CCCNC(=N)N)NC(=O)[C@H](Cc1ccc(O)cc1)NC(=O)[C@@H](NC(=O)[C@H](CC(C)C)NC(=O)[C@H](Cc1ccc(O)cc1)NC(=O)[C@H](CCCNC(=N)N)NC(=O)[C@H](Cc1c[nH]cn1)NC(=O)[C@@H]1CCCN1C(=O)[C@H](Cc1c[nH]c2ccccc12)NC(=O)[C@H](Cc1ccc(O)cc1)NC(=O)[C@H](Cc1ccccc1)NC(=O)[C@@H]1CCCN1C(=O)[C@H](CCC(N)=O)NC(=O)[C@H](Cc1ccccc1)NC(=O)[C@@H]1CCCN1C(=O)[C@H](Cc1ccccc1)NC(=O)[C@H](CCCNC(=N)N)NC(=O)[C@H](Cc1c[nH]cn1)NC(=O)[C@H](CC(N)=O)NC(=O)[C@H](CS)NC(=O)[C@H](CCCNC(=N)N)NC(=O)[C@H](CO)NC(=O)[C@@H]1CCCN1C(=O)[C@@H](NC(=O)[C@H](Cc1ccccc1)NC(=O)[C@@H]1CCCN1C(=O)[C@H](CCCNC(=N)N)NC(=O)[C@H](CC(N)=O)NC(=O)[C@@H]1CCCN1C(=O)[C@H](Cc1ccccc1)NC(=O)[C@H](CCCNC(=N)N)NC(=O)[C@@H](N)Cc1ccccc1)C(C)C)[C@@H](C)O)C(=O)N[C@@H](CCC(N)=O)C(=O)N[C@@H](CCCNC(=N)N)C(=O)O | human red blood cells | hemolysis |  |  |  | HC50 | 2.9 µmol/L
COc1cc(Br)c2oc(C3CCNCC3)cc2c1 | African green monkey cells |  |  | 5 days |  | CC50 | 19.1 µM
N[C@H](CCC(=O)N[C@H](CCC[C@H](N)C(=O)O)C(=O)O)C(=O)O | HFF-1 |  |  | 1 µg/mL |  | viability | 89.3%
CC(c1ccccc1)(c1ccc(O)cc1)c1ccc(O)cc1 | HepG2 spheroids, dissociated | annexin V-FITC/PI flow cytometry |  | 0.1 µM, 24 h |  | early apoptotic cells | 17.7 ± 4.61%
CC(C)Cn1cnc2c(N)nc3ccccc3c21 | HFF-1 |  |  | 0.1 µg/mL, 48 h |  | viability | 93.7%
CC(C)(c1ccc(O)cc1)c1ccc(O)cc1 | HepG2 spheroids | annexin V-FITC/PI flow cytometry |  | 0.10 µM, 96 h |  | necrotic cells | 37.9 ± 11%
CC(C)C[C@H](NC(=O)[C@H](CCCCN)NC(=O)[C@H](CCCCN)NC(=O)[C@H](CC(C)C)NC(=O)[C@H](CC(C)C)NC(=O)[C@H](CC(C)C)NC(=O)[C@H](CC(C)C)NC(=O)[C@H](CC(C)C)NC(=O)[C@H](CCCCN)NC(=O)[C@H](CCCCN)NC(=O)[C@@H](N)CC(C)C)C(=O)NCC(=O)NCC(=O)NCC(=O)N[C@@H](Cc1c[nH]c2ccccc12)C(=O)N[C@@H](CCCCN)C(=O)N[C@H](C(=O)N[C@@H](CC(N)=O)C(=O)N[C@@H](CCCCN)C(=O)N[C@@H](Cc1ccc(O)cc1)C(=O)NCC(=O)N[C@H](C(=O)N[C@@H](CC(C)C)C(=O)N[C@@H](Cc1ccc(O)cc1)C(=O)O)[C@@H](C)O)[C@@H](C)O | human red blood cells |  |  | 1 h, 37 °C, 10% hemolysis |  | lowest hemolytic concentration | > 256 µg/mL
CCNCc1nc2c(N)nc3ccccc3c2n1CC(C)(C)O | HFF-1 |  |  | 10 µg/mL, 48 h |  | viability | 87.7%
COc1cc(C(=O)OCCN2CCN(CCCN3c4ccccc4Sc4ccc(Cl)cc43)CC2)cc(OC)c1OC | African green monkey cells |  |  | 5 days |  | CC50 | > 100 µM
